Experimental data from different studies.
± gives the spread as reported. Values after ≈ are worked out from the molar mass of the structure shown.
UniProt P21729, sequence (whole entry, looked up): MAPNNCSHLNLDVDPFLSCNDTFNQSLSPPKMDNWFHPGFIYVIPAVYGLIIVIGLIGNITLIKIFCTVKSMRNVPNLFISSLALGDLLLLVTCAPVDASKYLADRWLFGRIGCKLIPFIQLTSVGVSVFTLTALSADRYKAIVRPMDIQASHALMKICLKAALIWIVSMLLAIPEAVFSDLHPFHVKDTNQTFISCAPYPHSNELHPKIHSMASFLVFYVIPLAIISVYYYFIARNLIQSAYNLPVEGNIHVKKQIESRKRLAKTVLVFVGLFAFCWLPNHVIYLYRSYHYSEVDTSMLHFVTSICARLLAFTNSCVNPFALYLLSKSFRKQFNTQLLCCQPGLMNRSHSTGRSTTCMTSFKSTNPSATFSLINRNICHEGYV

SMILES | tested on | test | system | setting | how to read | measurement | result
CN[C@](C)(C[18F])C(=O)O | SK-OV-3 tumour model | – | host not given, liver | 30 min, tumour-bearing | – | tracer uptake | 5.1 %ID/g
CCC(=O)N(C)c1ccc(Cl)c(Cl)c1 | Escherichia coli | Ames test | WP2 uvrA | 1.00 mg/plate, without S9 activation | – | revertants | 32 ± 2.1 revertants/plate
CC(=O)[O-].CN1CCN2CCN(CC1)CCN(Cc1ccccc1)CC2.F[P-](F)(F)(F)(F)F.[Cu+2] | Leishmania donovani | parasite growth, resazurin | – | 72 h, promastigote | – | IC50 | > 20 µM
CO.[Ag+].[S-]c1ncccn1.c1ccc(P(c2ccccc2)c2ccccc2)cc1.c1ccc(P(c2ccccc2)c2ccccc2)cc1 | Staphylococcus epidermidis | – | MTCC 435 | 50 mg/mL, 18 to 24 h | – | inhibition zone diameter | inactive
CC1N=C(CCCCCCCCCCC2=CC(CCCCCCCCCCC3=NC(C)C(O)CC3)C3CCCN3C2)CCC1O (stereo not shown) | Leishmania donovani | Alamar Blue | axenic amastigotes | 72 h, 37 °C | – | IC90 | 5.89 ± 0.76 µg/mL
CCCNC(=O)[C@H](CC(C)C)NC(=O)[C@H](Cc1c[nH]cn1)NC(=O)CNC(=O)[C@@H](NC(=O)[C@H](C)NC(=O)[C@H](Cc1c[nH]c2ccccc12)NC(=O)[C@H](CCC(N)=O)NC(=O)[C@@H](Cc1ccccc1)NC(=O)CCCCCNC(=O)CN1CCN(CC(=O)O)CCN(CC(=O)O)CCN(CC(=O)O)CC1)C(C)C [indium-111 labelled] | Gastrin-releasing peptide receptor (Mus musculus, UniProt P21729) | biodistribution | CF-1 mice, heart | intravenous, 1 h, unblocked | – | tissue uptake | 0.09 ± 0.04 %ID/g
Nc1ccc(/C=C/C(=O)N2CCc3c(oc4c(-c5ccc(F)cc5)cc(-c5ccc(C(=O)N6CCC(F)(F)CC6)cn5)cc34)C2)cn1 | MIA PaCa-2 | western blot, measured: BCL-XL | – | concentration not given | – | protein level | decreased
CN1CC(=O)N=C1N.C[C@H](CCC(=O)O)[C@H]1CC[C@H]2[C@@H]3[C@@H](O)C[C@@H]4C[C@H](O)CC[C@]4(C)[C@H]3CC[C@]12C | Shigella flexneri | – | ATCC 9199 | 1 mg per disc, 18 to 24 h, 37 °C | – | antibacterial activity | inactive
N=C(N)NCCC[C@@H]1NC(=O)[C@H](CCCCNC(=O)CNC(=O)CNC(=O)CNC(=O)CC[C@H](NC(=O)CCOCCOCCOCCOCCNC(=O)CC[C@H](NC(=O)CN2CCN(CC(=O)O)CCN(CC(=O)O)CCN(CC(=O)O)CC2)C(=O)NCCOCCOCCOCCOCCC(=O)N[C@@H](CCC(=O)NCC(=O)NCC(=O)NCC(=O)NCCCC[C@@H]2NC(=O)[C@@H](Cc3ccccc3)NC(=O)[C@H](CC(=O)O)NC(=O)CNC(=O)[C@H](CCCNC(=N)N)NC2=O)C(=O)NCC(=O)NCC(=O)NCC(=O)NCCCC[C@@H]2NC(=O)[C@@H](Cc3ccccc3)NC(=O)[C@H](CC(=O)O)NC(=O)CNC(=O)[C@H](CCCNC(=N)N)NC2=O)C(=O)NCC(=O)NCC(=O)NCC(=O)NCCCC[C@@H]2NC(=O)[C@@H](Cc3ccccc3)NC(=O)[C@H](CC(=O)O)NC(=O)CNC(=O)[C@H](CCCNC(=N)N)NC2=O)NC(=O)[C@@H](Cc2ccccc2)NC(=O)[C@H](CC(=O)O)NC(=O)CNC1=O [indium-111 labelled] | – | – | female athymic nude mice, intestine | intravenous, 3 µCi, 1 h, U-87 MG glioma xenograft | – | tissue uptake | 4.35 ± 1.13 %ID/g
CC(=O)[O-].F[P-](F)(F)(F)(F)F.[Cu+2].c1ccc(CN2CCN3CCN(CC2)CCN(Cc2ccccc2)CC3)cc1 | Leishmania donovani | parasite growth, resazurin | – | 72 h, amastigote | – | IC90 | > 20 µM
COc1cc(-c2ccc3oc(-c4ccsc4)c(C#CC4(O)CCCCC4)c3c2)cc(OC)c1OC | hepatitis C virus | HCV replicon replication | HCV genotype 1b subgenomic replicon cells | 10 µM | reference: DMSO | remaining activity | 103%
CC[C@H](C)[C@H](NC(=O)[C@H](Cc1c[nH]c2ccccc12)NC(=O)[C@H](CCCNC(=N)N)NC(=O)[C@H](CCC(N)=O)NC(=O)[C@@H](NC(=O)[C@H](Cc1c[nH]c2ccccc12)NC(=O)[C@H](CCCNC(=N)N)NC(=O)[C@H](CCCNC(=N)N)NC(=O)[C@H](C)NC(=O)[C@H](C)NC(=O)[C@H](C)NC(=O)[C@@H](NC(=O)[C@H](CCCCN)NC(=O)[C@@H]1CCCN1C(=O)[C@H](CCCNC(=N)N)NC(=O)[C@H](Cc1c[nH]c2ccccc12)NC(=O)[C@H](CCCNC(=N)N)NC(=O)[C@H](CCCNC(=N)N)NC(=O)[C@@H](NC(=O)[C@H](Cc1c[nH]c2ccccc12)NC(=O)[C@H](CCCNC(=N)N)NC(=O)[C@H](CCC(N)=O)NC(=O)[C@@H](NC(=O)[C@H](Cc1c[nH]c2ccccc12)NC(=O)[C@H](CCCNC(=N)N)NC(=O)[C@@H](N)CCCNC(=N)N)C(C)C)[C@@H](C)CC)C(C)C)C(C)C)C(=O)N[C@@H](CCCNC(=N)N)C(=O)N[C@@H](CCCNC(=N)N)C(=O)N[C@@H](Cc1c[nH]c2ccccc12)C(=O)N[C@@H](CCCNC(=N)N)C(=O)N1CCC[C@H]1C(=O)N[C@@H](CCCCN)C(=O)N[C@H](C(N)=O)C(C)C | Aspergillus fumigatus | – | DTO 368-D5 and 368-D6 | concentration not given, 25 °C | – | inhibition | inhibited
C=CC1CN(C(=O)NCC=CCSCC=CCNC(=O)N2CC(C=C)OC2=S)C(=S)O1 (stereo not shown) | human alphaherpesvirus 1 | – | – | – | reference: CC50 over EC50 | selectivity index | 5.2
CCCCc1ccc(-c2nc(C)c(C(C)=NNC(=N)N)s2)cc1 | Staphylococcus aureus | – | NRS194 MRSA | – | – | MBC | 1.3 µg/mL (≈ 3.95 µM)
C[C@@](O)(C(F)F)[C@H](NC(=O)c1ccc(C#CC#CC2CC2)cc1)C(=O)NO | – | – | dog, plasma | intravenous, 10 mg/kg | – | half-life | 1.4 h
[Cl-].[Cl-].[Mn+2].c1ccc(CN2CCCNCCN(Cc3ccccc3)CCCNCC2)cc1 | Leishmania donovani | – | THP-1-derived macrophages, intracellular amastigotes | – | – | IC50 | 12.4 µM
CC1(C)C(C=C(Cl)Cl)C1C(=O)OCc1c(F)c(F)c(F)c(F)c1F (stereo not shown) | Anopheles funestus | glazed tile contact bioassay | FANG susceptible | – | reference: permethrin | potency relative to permethrin | ≤ 25 fold
[Cl-].[Cl-].[Ni+2].c1ccc(CN2CCNCCN(Cc3ccccc3)CCNCC2)cc1 | Leishmania donovani | parasite growth, resazurin | – | 72 h, amastigote | – | IC90 | > 20 µM
CC[C@H](C)[C@H](NC(=O)[C@@H]1CCCN1C(=O)[C@H](CCCNC(=N)N)NC(=O)[C@H](CC(=O)O)NC(=O)[C@H](CCCCN)NC(=S)Nc1ccc2c(c1)C(=O)OC21c2ccc(O)cc2Oc2cc(O)ccc21)C(=O)N[C@@H](Cc1ccccc1)C(=O)N[C@@H](CCC(N)=O)C(=O)N[C@@H](CC(C)C)C(=O)N[C@@H](CC(N)=O)C(=O)N[C@H](C(=O)N[C@@H](CO)C(=O)N[C@@H](Cc1ccc(O)cc1)C(=O)N[C@@H](Cc1c[nH]c2ccccc12)C(=O)N[C@@H](CCC(=O)O)C(=O)N[C@@H](CCSC)C(=O)NCC(=O)N[C@@H](C)C(=O)O)[C@@H](C)O | Fusarium solani | – | – | 10-fold MIC, 25 °C | – | duration of growth inhibition | 24 h
